Published values pooled from the literature.
Each line is one published result; not all experiments were run side by side. Values joined by “and” are separate records of one study, mostly repeats; a detail may differ.
Partner: itself
B1: Tomm70 S94A (Mus musculus, UniProt Q9CZW5); sequence looked up; chain MAASKPIEAAMAAAAAPGSGNGVGGGGGTAGPGSGAGTLPRWHVALAIGAPLLLGAGAMYLWSRRRRRREAGGRGDASGLKRNSERKTPEGRAAPALGSGHHDGSGDSLEMSSLDRAQAAKNKGNKYFKAGKYEQAIQCYTEAISLCPTEKNVDLSTFYQNRAAAFEQLQKWKEVAQDCTKAVELNPKYVKALFRRAKAHEKLDNKKECLEDVTAVCILEGFQNEQSMLLADKVLKLLGKENAKEKYKNREPLMPSPQFIKSYFSSFTDDIISQPMLKGEKSDEDKDKEGEALEVKENSGYLKAKQYMEEENYDKIISECSKEIDAQGKYMAEALLLRATFYLLIGSANAAKPDLDKVISLKEANVKLRANALIKRGTMCMQQQQPMLSTQDFNMAAEIDPMNSDVYHHRGQLKILLDLVEEAVADFDACIRLRPKFALAQAQKCFALYRQAYTANNSSQVQAAMKGFEEIIKKFPRCAEGYALYAQALTDQQQFGKADEMYDKCIDLEPDNATTYVHKGLLQLQWKQDLDKGLELISKAIEIDNKCDFAYETMGTIEVQRGNMEKAIDMFNKAINLAKSEMEMAHLYSLCDAAHAQTEVAKKYGLKPPTL
B2: Sting1 138-378 (Mus musculus, UniProt Q3TBT3); sequence looked up; chain LTPAEVSAVCEEKKLNVAHGLAWSYYIGYLRLILPGLQARIRMFNQLHNNMLSGAGSRRLYILFPLDCGVPDNLSVVDPNIRFRDMLPQQNIDRAGIKNRVYSNSVYEILENGQPAGVCILEYATPLQTLFAMSQDAKAGFSREDRLEQAKLFCRTLEEILEDVPESRNNCRLIVYQEPTDGNSFSLSQEVLRHIRQEEKEEVTMNAPMTSVAPPPSVLSQEPRLLISGMDQPLPLRTDLI
B3: trfB Q53E (Escherichia coli, UniProt P03052); sequence looked up; chain MKKRLTESQFQEAIQGLEVGQQTIEIARGVLVDGKPQATFATSLGLTRGAVSEAVHRVWAAFEDKNLPEGYARVTAVLPEHQAYIVRKWEADAKKKQETKR
B4: rga8 1-420 (Schizosaccharomyces pombe, UniProt Q09697); sequence looked up; chain MISSFSNGFWSKDYATGVKKLFDCLDNGVEENEQVKNLLKLYKEANEEFGEKLQEITKECLKGKKPENTEDGATSNKAFEGLRSEIANQGKQHIRIAKDLETLIIAPFSKMSIDHSQKLQTSQQVLTNQIKSYEKKYYTLKKTKSAYYNKCRNLEDYEEESKESNETTSEAITDLTTVSSPQQQSLLENDDDLIQLGFMEFRPEELKEVLAQVLQEIPLQDYRVPILGTYPNTCSGNIIVSWLQENLPVPTLVAAEAFGQDLIAQGFLRHMGVGGSFVNSTNFHYQWKDKAFQFAGLNSVDSLVENAKALPLVGEYLSDYISHRKLYSSETQSQRLKREVLDANKIYSESVVDLDKCRTLVEETIADHLQFLQKCETDRVLYYKDFFMDLSTIISNFLPSMKLLADQIVVYQEIIQPESD
B5: cfbA 1-143 S11M (Methanocaldococcus jannaschii, UniProt Q58380); chain MEALVLVGHGMRLPYSKELLVKLAEKVKERNLFPIVEIGLMEFSEPTIPQAVKKAIEQGAKRIIVVPVFLAHGIHTTRDIPRLLGLIEDNHEHHHEHSHHHHHHHHHEHEKLEIPEDVEIIYREPIGADDRIVDIIIDRAFGR
B6: MB 2-154 G80A/H81A/H82A (Equus caballus, UniProt P68082); chain GLSDGEWQQVLNVWGKVEADIAGHGQEVLIRLFTGHPETLEKFDKFKHLKTEAEMKASEDLKKHGTVVLTALGGILKKKAAAEAELKPLAQSHATKHKIPIKYLEFISDAIIHVLHSKHPGDFGADAQGAMTKALELFRNDIAAKYKELGFQG
B7: sso0001 1-202 C197A (Sulfolobus solfataricus, UniProt Q97TX9); chain MITEFLLKKKLEEHLSHVKEENTIYVTDLVRCPRRVRYESEYKELAISQVYAPSAILGDILHLGLESVLKGNFNAETEVETLREINVGGKVYKIKGRADAIIRNDNGKSIVIEIKTSRSDKGLPLIHHKMQLQIYLWLFSAEKGILVYITPDRIAEYEINEPLDEATIVRLAEDTIMLQNSPRFNWECKYCIFSVIAPAKLT
B8: sodN mature (Streptomyces coelicolor, UniProt P80735); sequence looked up; chain HCDLPCGVYDPAQARIEAESVKAVQEKMAGNDDPHFQTRATVIKEQRAELAKHHVSVLWSDYFKPPHFEKYPELHQLVNDTLKALSAAKGSKDPATGQKALDYIAQIDKIFWETKKA
B9: NAC92 12-170 (Arabidopsis thaliana, UniProt Q9FKA0); sequence looked up; chain VEDEEHIDLPPGFRFHPTDEELITHYLKPKVFNTFFSATAIGEVDLNKIEPWDLPWKAKMGEKEWYFFCVRDRKYPTGLRTNRATEAGYWKATGKDKEIFKGKSLVGMKKTLVFYKGRAPKGVKTNWVMHEYRLEGKYCIENLPQTAKNEWVICRVFQK
B10: comFB 1-98 K41A (Bacillus subtilis, UniProt P39146); chain MLVNSKEIVMKELLDRYMDQLHMACTCQVCQNDVLALSLNAVSPSYVTDFKKIAYTKAELVDKQKNTAMLVILAESAAVVSESPSDLCQTKQEEAFIN
B11: CAT S167D (Homo sapiens, UniProt P04040); chain MADSRDPASDQMQHWKEQRAAQKADVLTTGAGNPVGDKLNVITVGPRGPLLVQDVVFTDEMAHFDRERIPERVVHAKGAGAFGYFEVTHDITKYSKAKVFEHIGKKTPIAVRFSTVAGESGSADTVRDPRGFAVKFYTEDGNWDLVGNNTPIFFIRDPILFPSFIHDQKRNPQTHLKDPDMVWDFWSLRPESLHQVSFLFSDRGIPDGHRHMNGYGSHTFKLVNANGEAVYCKFHYKTDQGIKNLSVEDAARLSQEDPDYGIRDLFNAIATGKYPSWTFYIQVMTFNQAETFPFNPFDLTKVWPHKDYPLIPVGKLVLNRNPVNYFAEVEQIAFDPSNMPPGIEASPDKMLQGRLFAYPDTHRHRLGPNYLHIPVNCPYRARVANYQRDGPMCMQDNQGGAPNYYPNSFGAPEQQPSALEHSIQYSGEVRRFNTANDDNVTQVRAFYVNVLNEEQRKRLCENIAGHLKDAQIFIQKKAVKNFTEVHPDYGSHIQALLDKYNAEKPKNAIHTFVQSGSHLAAREKANL
B12: RBKS K54N (Homo sapiens, UniProt Q9H477); sequence looked up; chain MAASGEPQRQWQEEVAAVVVVGSCMTDLVSLTSRLPKTGETIHGHKFFIGFGGNGANQCVQAARLGAMTSMVCKVGKDSFGNDYIENLKQNDISTEFTYQTKDAATGTASIIVNNEGQNIIVIVAGANLLLNTEDLRAAANVISRAKVMVCQLEITPATSLEALTMARRSGVKTLFNPAPAIADLDPQFYTLSDVFCCNESEAEILTGLTVGSAADAGEAALVLLKRGCQVVIITLGAEGCVVLSQTEPEPKHIPTEKVKAVDTTGAGDSFVGALAFYLAYYPNLSLEDMLNRSNFIAAVSVQAAGTQSSYPYKKDLPLTLF
B13: spo0J K256A (Bacillus subtilis, UniProt P26497); chain MAKGLGKGINALFNQVDLSEETVEEIKIADLRPNPYQPRKHFDDEALAELKESVLQHGILQPLIVRKSLKGYDIVAGERRFRAAKLAGLDTVPAIVRELSEALMREIALLENLQREDLSPLEEAQAYDSLLKHLDLTQEQLAKRLGKSRPHIANHLRLLTLPENIQQLIAEGTLSMGHGRTLLGLKNKNKLEPLVQKVIAEQLNVRQLEQLIQQLNQNVPRETKKKEPVKDAVLKERESYLQNYFGTTVNIKRQKAKGKIEIEFFSNEDLDRILELLSERES
B14: ADAR1 127-end 127-1226 I872T (human, UniProt P55265); sequence looked up; chain SSHFQELSIYQDQEQRILKFLEELGEGKATTAHDLSGKLGTPKKEINRVLYSLAKKGKLQKEAGTPPLWKIAVSTQAWNQHSGVVRPDGHSQGAPNSDPSLEPEDRNSTSVSEDLLEPFIAVSAQAWNQHSGVVRPDSHSQGSPNSDPGLEPEDSNSTSALEDPLEFLDMAEIKEKICDYLFNVSDSSALNLAKNIGLTKARDINAVLIDMERQGDVYRQGTTPPIWHLTDKKRERMQIKRNTNSVPETAPAAIPETKRNAEFLTCNIPTSNASNNMVTTEKVENGQEPVIKLENRQEARPEPARLKPPVHYNGPSKAGYVDFENGQWATDDIPDDLNSIRAAPGEFRAIMEMPSFYSHGLPRCSPYKKLTECQLKNPISGLLEYAQFASQTCEFNMIEQSGPPHEPRFKFQVVINGREFPPAEAGSKKVAKQDAAMKAMTILLEEAKAKDSGKSEESSHYSTEKESEKTAESQTPTPSATSFFSGKSPVTTLLECMHKLGNSCEFRLLSKEGPAHEPKFQYCVAVGAQTFPSVSAPSKKVAKQMAAEEAMKALHGEATNSMASDNQPEGMISESLDNLESMMPNKVRKIGELVRYLNTNPVGGLLEYARSHGFAAEFKLVDQSGPPHEPKFVYQAKVGGRWFPAVCAHSKKQGKQEAADAALRVLIGENEKAERMGFTEVTPVTGASLRRTMLLLSRSPEAQPKTLPLTGSTFHDQIAMLSHRCFNTLTNSFQPSLLGRKILAATIMKKDSEDMGVVVSLGTGNRCVKGDSLSLKGETVNDCHAEIISRRGFIRFLYSELMKYNSQTAKDSIFEPAKGGEKLQIKKTVSFHLYISTAPCGDGALFDKSCSDRAMESTESRHYPVFENPKQGKLRTKVENGEGTIPVESSDIVPTWDGIRLGERLRTMSCSDKILRWNVLGLQGALLTHFLQPIYLKSVTLGYLFSQGHLTRAICCRVTRDGSAFEDGLRHPFIVNHPKVGRVSIYDSKRQSGKTKETSVNWCLADGYDLEILDGTRGTVDGPRNELSRVSKKNIFLLFKKLCSFRYRRDLLRLSYGEAKKAARDYETAKNYFKKGLKDMGYGNWISKPQEEKNFYLCPV
B15: portal protein dodecamer (Staphylococcus phage 80alpha, UniProt A4ZFA8); sequence looked up; chain MLKVNEFETDTDLRGNINYLFNDEANVVYTYDGTESDLLQNVNEVSKYIEHHMDYQRPRLKVLSDYYEGKTKNLVELTRRKEEYMADNRVAHDYASYISDFINGYFLGNPIQYQDDDKDVLEAIEAFNDLNDVESHNRSLGLDLSIYGKAYELMIRNQDDETRLYKSDAMSTFIIYDNTVERNSIAGVRYLRTKPIDKTDEDEVFTVDLFTSHGVYRYLTNRTNGLKLTPRENSFESHSFERMPITEFSNNERRKGDYEKVITLIDLYDNAESDTANYMSDLNDAMLLIKGNLNLDPVEVRKQKEANVLFLEPTVYVDAEGRETEGSVDGGYIYKQYDVQGTEAYKDRLNSDIHMFTNTPNMKDDNFSGTQSGEAMKYKLFGLEQRTKTKEGLFTKGLRRRAKLLETILKNTRSIDANKDFNTVRYVYNRNLPKSLIEELKAYIDSGGKISQTTLMSLFSFFQDPELEVKKIEEDEKESIKKAQKGIYKDPRDINDDEQDDDTKDTVDKKE
Sequence of UniProt Q94A41 (whole entry, looked up): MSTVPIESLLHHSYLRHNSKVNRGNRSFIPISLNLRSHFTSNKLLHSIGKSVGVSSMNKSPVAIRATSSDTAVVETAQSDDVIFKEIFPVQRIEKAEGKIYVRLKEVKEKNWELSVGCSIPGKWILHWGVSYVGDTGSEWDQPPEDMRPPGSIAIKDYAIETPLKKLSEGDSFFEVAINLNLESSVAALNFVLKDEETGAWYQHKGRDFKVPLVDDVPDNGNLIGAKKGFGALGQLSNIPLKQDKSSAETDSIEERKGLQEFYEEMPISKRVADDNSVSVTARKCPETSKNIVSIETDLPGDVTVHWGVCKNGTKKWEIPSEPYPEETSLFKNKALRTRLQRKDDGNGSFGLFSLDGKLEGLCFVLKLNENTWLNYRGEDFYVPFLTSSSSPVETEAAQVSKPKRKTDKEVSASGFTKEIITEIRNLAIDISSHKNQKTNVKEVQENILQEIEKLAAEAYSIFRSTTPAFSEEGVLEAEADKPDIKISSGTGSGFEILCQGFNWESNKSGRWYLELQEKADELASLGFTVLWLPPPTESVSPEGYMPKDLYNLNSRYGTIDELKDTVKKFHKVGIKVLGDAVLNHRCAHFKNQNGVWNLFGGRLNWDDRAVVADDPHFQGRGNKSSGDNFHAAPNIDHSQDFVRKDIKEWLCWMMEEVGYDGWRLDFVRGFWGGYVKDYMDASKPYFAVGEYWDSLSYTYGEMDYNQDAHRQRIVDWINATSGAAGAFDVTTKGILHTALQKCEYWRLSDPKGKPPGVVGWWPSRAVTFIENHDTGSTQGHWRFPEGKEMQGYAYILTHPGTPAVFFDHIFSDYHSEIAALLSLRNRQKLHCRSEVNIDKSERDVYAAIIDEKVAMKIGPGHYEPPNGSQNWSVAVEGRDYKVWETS
Sequence of UniProt P30566 (whole entry, looked up): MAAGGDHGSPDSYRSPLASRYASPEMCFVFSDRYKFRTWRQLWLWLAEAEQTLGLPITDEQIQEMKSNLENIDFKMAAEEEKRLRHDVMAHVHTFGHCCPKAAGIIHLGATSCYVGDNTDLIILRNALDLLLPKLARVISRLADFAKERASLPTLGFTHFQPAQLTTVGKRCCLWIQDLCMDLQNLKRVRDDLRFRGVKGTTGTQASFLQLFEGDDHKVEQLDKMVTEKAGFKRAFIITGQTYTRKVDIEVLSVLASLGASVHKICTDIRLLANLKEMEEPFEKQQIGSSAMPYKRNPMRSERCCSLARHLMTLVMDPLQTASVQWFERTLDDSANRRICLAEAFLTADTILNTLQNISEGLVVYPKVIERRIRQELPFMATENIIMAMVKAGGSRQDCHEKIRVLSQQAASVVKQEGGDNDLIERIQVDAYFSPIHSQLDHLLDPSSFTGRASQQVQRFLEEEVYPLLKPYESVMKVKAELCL

Under “subunits per oligomer”, `B1 (Tomm70 S94A)` is recorded as 2 (native PAGE).
`B2 (Sting1 138-378)` — result for “subunits per oligomer”: 4 (SEC).
`B3 (trfB Q53E)` — result for “subunits per oligomer”: 2 (SEC).
Under “subunits per oligomer”, `B4 (rga8 1-420)` is recorded as 2 (cross-linking).
For `B5 (cfbA 1-143 S11M)`, “subunits per oligomer” read 2 (SEC).
For `B6 (MB 2-154 G80A/H81A/H82A)`, “subunits per oligomer” read 2 (SEC-MALS; apo).
For `B7 (sso0001 1-202 C197A)`, “subunits per oligomer” read 5 protomers (SEC).
`B8 (sodN mature)` — result for “subunits per oligomer”: 6 (SEC).
For `ADSL (Homo sapiens, UniProt P30566)`, “subunits per oligomer” read 4 (SEC-MALS).
Under “subunits per oligomer”, `B9 (NAC92 12-170)` is recorded as 2 (SEC; pH 7.5).
`AMY3 mature (Arabidopsis thaliana, UniProt Q94A41)` — result for “subunits per oligomer”: 2 (SEC-MALS).
Under “subunits per oligomer”, `B10 (comFB 1-98 K41A)` is recorded as 2 (SEC-MALS).
`B11 (CAT S167D)` — result for “subunits per oligomer”: 2 and 4 (cross-linking; CaSki).
For `B12 (RBKS K54N)`, “subunits per oligomer” read 2 (mass photometry).
`B13 (spo0J K256A)` — result for “subunits per oligomer”: 2 (SEC-MALS).
Under “subunits per oligomer”, `B14 (ADAR1 127-end 127-1226 I872T)` is recorded as 2 (SEC).
Under “subunits per oligomer”, `B15 (portal protein dodecamer)` is recorded as 12 (cryo-EM).
